Experimental data of several laboratories.
Every numbered part comes from another study and shows a few of its results, in no order.

Set 1
Target: Centromere-binding protein 1, full length, His-tagged (CBF1, Saccharomyces cerevisiae, UniProt P17106, residues 1-351)
Sequence of UniProt P17106 (whole entry, looked up): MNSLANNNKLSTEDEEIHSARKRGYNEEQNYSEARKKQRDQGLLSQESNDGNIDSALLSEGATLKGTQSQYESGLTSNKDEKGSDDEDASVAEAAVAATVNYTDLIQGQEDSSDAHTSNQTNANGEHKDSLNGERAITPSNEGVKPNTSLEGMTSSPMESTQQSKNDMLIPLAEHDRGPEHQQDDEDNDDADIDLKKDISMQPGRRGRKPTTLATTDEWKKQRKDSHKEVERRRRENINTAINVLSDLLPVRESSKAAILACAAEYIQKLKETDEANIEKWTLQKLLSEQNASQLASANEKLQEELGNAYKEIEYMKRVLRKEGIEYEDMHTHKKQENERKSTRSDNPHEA
Technique: competition protein-binding microarray
Molecule type: double-stranded DNA, one strand shown
Matrix: in vitro
Tested at: 2 µM
Notes: whole 60-bp probe, lowest competitor level
With: Pho4 competitor, 0.05 µM
Reading: higher = stronger binding
For `TGCGCAACAACTTGCTTCGTGGGTGTATGTCTAGAAGTCTTGATTCGCTTGACGCTGCTG`, the fluorescence intensity was 70.1 a.u.
For `TGTTCAAAAAGCCATCACGTGGAACCCCGAAAAAAAGTCTTGATTCGCTTGACGCTGCTG`, the fluorescence intensity was 3300 a.u.
`GGGGCTGTCCCGCCCCACGTGGACCGGCTCCCCGCTGTCTTGATTCGCTTGACGCTGCTG` gave a fluorescence intensity of 372 a.u.

Set 2
Target: Sal-like protein 4, full length isoform A (SALL4, Homo sapiens, UniProt Q9UJQ4, residues 1-1053)
Sequence of UniProt Q9UJQ4 (whole entry, looked up): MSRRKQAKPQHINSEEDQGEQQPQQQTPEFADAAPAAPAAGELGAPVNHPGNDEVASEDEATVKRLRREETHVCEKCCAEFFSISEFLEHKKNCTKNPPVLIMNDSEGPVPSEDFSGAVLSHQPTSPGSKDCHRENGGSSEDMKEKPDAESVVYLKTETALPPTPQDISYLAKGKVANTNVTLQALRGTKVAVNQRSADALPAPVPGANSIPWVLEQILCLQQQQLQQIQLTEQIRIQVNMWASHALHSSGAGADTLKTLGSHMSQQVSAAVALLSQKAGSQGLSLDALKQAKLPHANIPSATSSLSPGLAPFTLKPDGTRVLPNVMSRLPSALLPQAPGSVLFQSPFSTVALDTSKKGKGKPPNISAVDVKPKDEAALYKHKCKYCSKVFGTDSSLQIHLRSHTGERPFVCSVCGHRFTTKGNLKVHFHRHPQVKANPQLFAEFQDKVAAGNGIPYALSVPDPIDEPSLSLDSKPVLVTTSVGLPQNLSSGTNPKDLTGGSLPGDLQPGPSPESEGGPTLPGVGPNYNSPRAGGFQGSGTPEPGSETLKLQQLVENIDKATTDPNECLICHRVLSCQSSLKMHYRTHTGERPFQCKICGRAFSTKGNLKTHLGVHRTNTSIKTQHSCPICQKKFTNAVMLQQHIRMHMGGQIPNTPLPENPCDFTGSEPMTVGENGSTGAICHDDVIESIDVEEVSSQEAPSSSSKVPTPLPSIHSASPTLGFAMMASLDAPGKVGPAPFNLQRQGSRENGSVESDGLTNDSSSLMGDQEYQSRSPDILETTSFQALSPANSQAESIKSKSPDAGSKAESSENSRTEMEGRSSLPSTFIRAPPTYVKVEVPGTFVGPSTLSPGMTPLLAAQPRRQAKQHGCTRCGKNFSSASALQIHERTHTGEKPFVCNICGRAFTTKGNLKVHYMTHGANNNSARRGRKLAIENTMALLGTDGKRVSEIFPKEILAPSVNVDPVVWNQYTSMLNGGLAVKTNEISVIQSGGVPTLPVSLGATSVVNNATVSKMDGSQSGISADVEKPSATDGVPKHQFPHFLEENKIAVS
Technique: universal PBM
Molecule type: double-stranded DNA, one strand shown
Matrix: in vitro
Tested at: 600 nM
Notes: 8-mer, flanks averaged, mean of replicates
Reading: higher = stronger binding
For `AATAACCC`, the E-score was 0.208.
For `GAGAATTA`, the E-score was 0.264.
`ATCATGAG` has an E-score of 0.0959.

Set 3
Target: Interferon regulatory factor 5, full length, phosphomimetic (IRF5, Homo sapiens, UniProt Q13568-2, residues 1-514, K96S/S451D/S453D/S456D/S462D)
Technique: protein-binding microarray
Molecule type: double-stranded DNA, one strand shown
Matrix: in vitro
Tested at: 250 nM
Notes: 60-bp whole probe
With: salmon DNA 0.4 mg/ml
Reference: random background probes
Reading: higher = stronger binding
`GCCTAGCACGACGGTTTCGGGTTTCGGTACGTGCTAGTCTTGATTCGCTTGACGCTGCTG` has a log fluorescence of 9.03 z-score.
With `GCCTAGCACTTAGGTCGCGGACTGGGTTAGTGCTAGGTCTTGATTCGCTTGACGCTGCTG` the log fluorescence was -0.468 z-score.
`GCCTAGCACGACGAACTGAATCTCGAGACGTGCTAGGTCTTGATTCGCTTGACGCTGCTG` has a log fluorescence of 0.0613 z-score.

Mixed results
With `PhoQ, residues 284 288 289 292 302 303 TTCLQL` the fold induction was 0.81 (PhoP, residues 12 14 15 18 19 DLLYY (Escherichia coli, UniProt P23836); Sort-seq, item: YFP reporter; E. coli; PhoQ-PhoP variant library, with: 10 µM Mg2+; reference: high Mg2+ state, higher = stronger signaling).

A few entries again (set 3):
With `GCCTAGCACTTAGGTCGCGGACTGGGTTAGTGCTAGGTCTTGATTCGCTTGACGCTGCTG` the log fluorescence was -0.468 z-score.
